Results from different studies.
Parts stem from different laboratories: compare values within a part only. Values joined by “and” are separate records of one study, mostly repeats; a detail may differ.
Chain of UniProt P9WI81 (whole entry, looked up): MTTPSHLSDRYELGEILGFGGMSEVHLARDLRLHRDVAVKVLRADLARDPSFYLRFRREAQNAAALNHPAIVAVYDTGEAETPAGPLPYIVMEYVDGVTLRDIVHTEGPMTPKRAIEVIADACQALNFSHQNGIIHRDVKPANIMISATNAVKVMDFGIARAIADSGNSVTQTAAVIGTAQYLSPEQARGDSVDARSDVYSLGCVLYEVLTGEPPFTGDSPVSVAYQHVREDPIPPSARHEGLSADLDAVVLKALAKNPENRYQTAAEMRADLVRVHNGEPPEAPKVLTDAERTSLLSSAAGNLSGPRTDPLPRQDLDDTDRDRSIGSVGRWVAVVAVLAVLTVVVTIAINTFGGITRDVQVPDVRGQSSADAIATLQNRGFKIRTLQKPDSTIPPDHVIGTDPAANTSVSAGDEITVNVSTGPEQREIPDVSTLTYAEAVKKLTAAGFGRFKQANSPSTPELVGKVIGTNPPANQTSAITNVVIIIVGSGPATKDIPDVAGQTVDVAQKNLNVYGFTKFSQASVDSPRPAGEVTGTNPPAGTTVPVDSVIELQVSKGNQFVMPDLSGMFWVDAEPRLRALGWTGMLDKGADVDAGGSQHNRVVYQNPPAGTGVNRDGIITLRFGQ
Chain of UniProt P61075 (whole entry, looked up): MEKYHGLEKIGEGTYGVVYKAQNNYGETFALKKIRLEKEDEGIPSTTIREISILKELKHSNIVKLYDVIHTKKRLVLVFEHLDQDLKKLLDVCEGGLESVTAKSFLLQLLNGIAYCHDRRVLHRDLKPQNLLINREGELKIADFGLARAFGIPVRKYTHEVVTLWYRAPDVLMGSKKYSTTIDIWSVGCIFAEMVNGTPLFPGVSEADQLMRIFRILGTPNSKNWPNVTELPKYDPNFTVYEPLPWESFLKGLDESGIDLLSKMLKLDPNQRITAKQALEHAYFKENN
Chain of UniProt Q01959 (whole entry, looked up): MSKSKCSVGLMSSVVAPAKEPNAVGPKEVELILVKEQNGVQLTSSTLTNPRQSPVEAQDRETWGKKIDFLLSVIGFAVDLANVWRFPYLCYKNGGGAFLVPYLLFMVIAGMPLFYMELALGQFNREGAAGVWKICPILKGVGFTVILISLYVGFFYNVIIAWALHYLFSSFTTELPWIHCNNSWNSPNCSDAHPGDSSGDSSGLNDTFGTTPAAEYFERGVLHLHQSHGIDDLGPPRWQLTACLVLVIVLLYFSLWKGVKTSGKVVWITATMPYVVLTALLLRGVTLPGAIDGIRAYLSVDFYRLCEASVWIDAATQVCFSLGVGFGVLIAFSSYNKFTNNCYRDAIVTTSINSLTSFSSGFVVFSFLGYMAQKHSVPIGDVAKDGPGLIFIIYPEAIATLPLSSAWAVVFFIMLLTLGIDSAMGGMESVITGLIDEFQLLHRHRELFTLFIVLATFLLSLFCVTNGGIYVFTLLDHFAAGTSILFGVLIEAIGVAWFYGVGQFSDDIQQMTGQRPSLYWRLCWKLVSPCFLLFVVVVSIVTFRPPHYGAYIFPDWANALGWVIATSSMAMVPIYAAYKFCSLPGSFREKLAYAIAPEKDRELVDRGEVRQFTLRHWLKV

Block 1
SMILES: c1ccc(Oc2ccc(Nc3c4c(nc5ccccc35)CCC4)cc2)cc1
Organism: Leishmania donovani
observed	strain	medium	concentration	time	setting	inhibition
parasite killing	DD8	promastigotes	0.016 µM	24 h		7% and 5%
parasite growth	DD8 amphotericin B-resistant	intracellular amastigotes	0.8 µM			52% and 54% and 59% and 58%
parasite growth	DD8 amphotericin B-resistant	intracellular amastigotes	0.008 µM			1% and 2%
parasite growth	DD8 amphotericin B-resistant	promastigotes	16.66 µM			94% and 81% and 96% and 98% and 99%
parasite growth	DD8 amphotericin B-resistant	promastigotes	33.33 µM			100% and 99%
parasite growth			66.66 µM		promastigote	99%
parasite growth			8 µM		intracellular, amastigote	74%

Block 2
Cell line: HEK-293T
Observed: pseudovirus infection
Method: FDA-approved drug library counter-screen
Organism: VSV pseudotyped with VSV-G
Concentration: 10 µM
Time: 16 h
Baseline: vehicle-treated
Compound	GFP-positive cells
C=C1[C@H](CO)[C@@H](O)C[C@@H]1n1cnc2c(=O)[nH]c(N)nc21	98.5%
C[C@H](CCC(=O)NCCS(=O)(=O)O)[C@H]1CC[C@H]2[C@@H]3[C@@H](O)C[C@@H]4C[C@H](O)CC[C@]4(C)[C@H]3CC[C@]12C	92.4%
Nc1nc(CC(=O)Nc2ccc(CCNC[C@H](O)c3ccccc3)cc2)cs1	116%
CC(NCCc1ccc(O)cc1)C(O)c1ccc(O)cc1 (stereo not drawn)	92.4%
CCc1nc(N)nc(N)c1-c1ccc(Cl)cc1	97%
CCN[C@H]1CN(CCCOC)S(=O)(=O)c2sc(S(N)(=O)=O)cc21	112%
COc1c(N2C[C@@H]3CCCN[C@@H]3C2)c(F)cc2c(=O)c(C(=O)O)cn(C3CC3)c12	86.5%
OC(c1cc(C(F)(F)F)nc2c(C(F)(F)F)cccc12)C1CCCCN1 (stereo not drawn)	91.5%
O=C1OC2(c3ccc(O)cc3Oc3cc(O)ccc32)c2ccccc21	111%
CC[C@]1(O)C[C@@H]2CN(CCc3c([nH]c4ccccc34)[C@@](C(=O)OC)(c3cc4c(cc3OC)N(C)[C@H]3[C@@](O)(C(=O)OC)[C@H](OC(C)=O)[C@]5(CC)C=CCN6CC[C@]43[C@@H]65)C2)C1	3.61%
Cc1cc(C(C)(C)C)c(O)c(C)c1CC1=NCCN1	113%
CCn1cc(C(=O)O)c(=O)c2cc(F)c(N3CCNCC3)nc21	112%
CC12CC3CC(C)(C1)CC(N)(C3)C2	110%
Nc1ccn([C@@H]2CS[C@H](CO)O2)c(=O)n1	101%
CC(=O)Oc1cc2c(s1)CCN(C(C(=O)C1CC1)c1ccccc1F)C2 (stereo not drawn)	92%
C[N+](C)(C)CCCCCCCCCC[N+](C)(C)C	87.8%
NS(=O)(=O)c1cc2c(cc1Cl)N=C(CSCc1ccccc1)NS2(=O)=O	97.5%
Cc1c(-c2ccccc2)oc2c(C(=O)OCCN3CCCCC3)cccc2c1=O	113%
COc1ccc([C@@H]2Sc3ccccc3N(CCN(C)C)C(=O)[C@@H]2OC(C)=O)cc1	108%
Cc1ccc(Nc2nccc(N(C)c3ccc4c(C)n(C)nc4c3)n2)cc1S(N)(=O)=O	69.2%
CC1=C(C(=O)O)N2C(=O)[C@@H](NC(=O)[C@H](N)c3ccc(O)cc3)[C@H]2SC1	91.6%
CN(C)CCc1c[nH]c2ccc(Cn3cncn3)cc12	109%
C#C[C@]1(O)CC[C@H]2[C@@H]3CCC4=CC(=O)CC[C@@H]4[C@H]3C(=C)C[C@@]21CC	93.3%
Nc1cc(N2CCCCC2)nc(N)[n+]1[O-]	118%
CC(=O)Oc1ccc(C(c2ccc(OC(C)=O)cc2)c2ccccn2)cc1	118%

Block 3
Cell line: HuT78
Concentration: 2 µM
Time: 48 h
Baseline: untreated
SMILES	viability [%]
C/C(O)=C(\C#N)C(=O)Nc1cc(Br)ccc1Br	116
NC(=O)Nc1sc(-c2ccc(F)cc2)cc1C(N)=O	77.7
N#CC(C#N)=Cc1ccc(O)c(O)c1	105
CC(C)(C)c1cc(C=C(C#N)C#N)cc(C(C)(C)C)c1O	73

Block 4
Structure (SMILES): COc1cc(C(=O)OCCCN2CCCN(CCCOC(=O)c3cc(OC)c(OC)c(OC)c3)CC2)cc(OC)c1OC
Species: CD-1 mice, male
Route: subcutaneous
Dose: 30 mg/kg
medium	time	concentration [ng/mL]
brain	0.1667 h	166
brain	8 h	0.667
spinal cord	1.5 h	313
spinal cord	0.5 h	230
brain	0.5 h	124
brain	1.5 h	139
brain	4.5 h	24.2
spinal cord	4.5 h	18.2

Block 5
SMILES: CNC(=O)c1ccc(-c2cnn3ccc(C(=O)N(C)c4ccc(Cl)c(C(=O)OC)c4)cc23)cc1
Medium: plasma
Route: oral
species	dose	time	setting	Cmax
female C57BL/6 mouse	3 mg/kg/day			0.1 ng/mL
bovine	20 mg/kg/day			10.1 ng/mL
female C57BL/6 mouse	10 mg/kg/day			4 ng/mL
beagle dog	15 mg/kg/day		multiple doses	20 ng/mL
beagle dog	250 mg/kg/day		multiple doses	76.5 ng/mL
female C57BL/6 IFN-γ knockout mice	10 mg/kg			6.42 nM and 12.2 nM and 6.58 nM
Wistar rat, both sexes	50 mg/kg/day	2 weeks	GLP toxicology study	1.02 ng/mL
beagle dog	50 mg/kg/day		multiple doses	38.7 ng/mL
Wistar rat, both sexes	250 mg/kg/day	2 weeks	GLP toxicology study	2.09 ng/mL

Mixed results
Structure (SMILES)	tested on	observed	method	concentration	baseline	quantity	value
CN([C@@H]1CCc2c(CC(=O)O)c3ccccc3n2C1)S(=O)(=O)c1ccc(F)cc1	Serine/threonine-protein kinase PknB (pknB, Mycobacterium tuberculosis, UniProt P9WI81)	cell-free assay	competition with immobilised ligand	1 µM		remaining binding	100%
O=C1NC(c2ccccn2)Sc2ccccc21 (stereo not drawn)	Sodium-dependent dopamine transporter (SLC6A3, Homo sapiens, UniProt Q01959)	ligand displacement		10 µM		inhibition	-2.05%
CN(C)c1ncnc(-c2ccc3nc(Nc4cc(CN5CCN(C(=O)CC(F)(F)F)CC5)ccn4)[nH]c3c2)c1Cl	Cyclin-dependent kinase 2 homolog (CRK2, Plasmodium falciparum, UniProt P61075)	cell-free assay	competition with immobilised ligand	1 µM		remaining binding	85%
CN[C@@H]1C[C@H]2O[C@@](C)([C@@H]1OC)n1c3ccccc3c3c4c(c5c6ccccc6n2c5c31)C(=O)NC4	normal-adjacent epithelium patient-derived organoids sample E		CellTiter-Glo	1 µM	DMSO	viability	0.9%

For quick reference, copied from above (block 5):
species	dose	time	setting	Cmax
female C57BL/6 mouse	3 mg/kg/day			0.1 ng/mL
beagle dog	50 mg/kg/day		multiple doses	38.7 ng/mL
beagle dog	250 mg/kg/day		multiple doses	76.5 ng/mL
Wistar rat, both sexes	250 mg/kg/day	2 weeks	GLP toxicology study	2.09 ng/mL
